Measurements pooled from the literature.
Compare with care: the assays were run in different laboratories.
Target: Muscarinic acetylcholine receptor M1 (CHRM1, Homo sapiens, UniProt P11229)
Sequence (P11229 1-460, as in one of the studies): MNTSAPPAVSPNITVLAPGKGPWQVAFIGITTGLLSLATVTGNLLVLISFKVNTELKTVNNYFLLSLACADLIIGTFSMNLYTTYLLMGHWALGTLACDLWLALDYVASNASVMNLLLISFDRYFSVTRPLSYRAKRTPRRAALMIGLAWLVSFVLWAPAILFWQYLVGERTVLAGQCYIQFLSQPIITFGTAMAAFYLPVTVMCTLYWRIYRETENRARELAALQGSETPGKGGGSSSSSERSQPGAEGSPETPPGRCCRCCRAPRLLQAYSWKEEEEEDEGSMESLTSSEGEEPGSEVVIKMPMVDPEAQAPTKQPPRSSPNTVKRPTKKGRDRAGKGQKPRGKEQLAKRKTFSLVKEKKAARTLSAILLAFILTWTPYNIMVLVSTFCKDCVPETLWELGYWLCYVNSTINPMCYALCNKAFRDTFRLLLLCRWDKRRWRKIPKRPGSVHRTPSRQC

CN(C(=O)n1cnc(-c2ccc[n+]([O-])c2)c1)C1CCCCC1 has an inhibition of -9.44% (binding; 10 µM).
OCCCN1CC[C@@H]2C[C@H]1c1cc(-c3ccc(C(F)(F)F)cc3)ccc12 has an inhibition of less than 50% (radioligand binding, PDSP competition binding; 10 µM).
Cc1ccc(Cn2nc3c4ccccc4n(Cc4ccc(-n5cccn5)cc4)cc-3c2=O)c(C)c1 — result for “maximal ACh response”: 80% (calcium mobilization, positive allosteric modulator; CHO-K1 cells; 30 µM, with: submaximal acetylcholine).
CN1CCC(CNc2ccc3ncc(-c4cccc(OC(F)(F)F)c4)n3n2)CC1 has a response of greater than 50% (cell-based; 10 µM; reference: control).
Cc1ccc(C)c(Cn2nc3c4ccccc4n(Cc4ccccc4)cc-3c2=O)c1 — result for “maximal ACh response”: 40% (calcium mobilization, positive allosteric modulator; CHO-K1 cells; 30 µM, with: submaximal acetylcholine).
CCCC(CCC)c1nc2c(Nc3ccc(C#CCCCCCCCCN)cc3)nc3ccccc3c2[nH]1: off-target affinity “inactive” (PDSP screening).
COc1cc(Cl)c(C(=O)N[C@@H](CN[C@H]2CC[C@@H](N)CC2)Cc2ccc(C#N)cc2)cc1-c1ccc(CN[C@H](C)c2ccc(C)cc2)o1 gave an inhibition of 65% (agonist response, antagonist; human cells; 10 µM, M1 antagonist).
For CCN1/C(=C/C(C)=O)Sc2ccc(F)cc21, the inhibition was 0% (10 µM).
The inhibition of O=C(NO)c1ccc(CN2CCCCc3ccccc32)c(F)c1 is reported as 24.3% (radioligand binding, radioligand displacement; 10 µM, mean of replicates).
